Experimental data from different studies.
Every numbered part comes from another study and shows a few of its results, in no order. Positions count from the first letter of the parent shown.
Sequence of UniProt Q8WU08 (whole entry, looked up): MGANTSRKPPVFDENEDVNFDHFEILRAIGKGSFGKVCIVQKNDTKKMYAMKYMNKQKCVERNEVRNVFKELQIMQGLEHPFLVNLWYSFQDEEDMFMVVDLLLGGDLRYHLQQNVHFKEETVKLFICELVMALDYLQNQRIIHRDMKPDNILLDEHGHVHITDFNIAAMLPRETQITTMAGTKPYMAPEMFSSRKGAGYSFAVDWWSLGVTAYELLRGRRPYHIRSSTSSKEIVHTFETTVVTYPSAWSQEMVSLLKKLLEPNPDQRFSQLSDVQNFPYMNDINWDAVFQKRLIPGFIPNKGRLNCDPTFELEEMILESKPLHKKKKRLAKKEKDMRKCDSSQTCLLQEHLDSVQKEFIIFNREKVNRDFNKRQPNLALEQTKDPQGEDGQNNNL
Sequence of UniProt Q9UQM7 (whole entry, looked up): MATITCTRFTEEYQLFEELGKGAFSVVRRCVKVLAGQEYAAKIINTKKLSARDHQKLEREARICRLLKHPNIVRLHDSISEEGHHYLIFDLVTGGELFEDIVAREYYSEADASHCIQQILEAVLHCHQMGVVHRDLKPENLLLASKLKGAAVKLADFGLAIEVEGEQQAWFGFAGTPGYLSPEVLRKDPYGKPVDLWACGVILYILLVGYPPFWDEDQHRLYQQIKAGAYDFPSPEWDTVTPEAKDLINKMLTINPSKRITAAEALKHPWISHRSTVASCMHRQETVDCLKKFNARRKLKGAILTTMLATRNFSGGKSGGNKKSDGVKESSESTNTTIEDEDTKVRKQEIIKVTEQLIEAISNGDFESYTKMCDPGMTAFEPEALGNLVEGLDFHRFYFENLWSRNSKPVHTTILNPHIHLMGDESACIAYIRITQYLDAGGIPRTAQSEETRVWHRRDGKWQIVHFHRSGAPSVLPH

Set 1 — target: CCNB2, cyclin fold, Cln2 fusion (human); technique: yeast growth competition, sequencing; medium: yeast; setting: weak parent motif; baseline: not given; direction: higher = stronger binding
Starting sequence: SCAPER docking peptide (human); SNARRSLNFGGST
Under “normalised enrichment score”, `N2M` is recorded as -0.253.
Under “normalised enrichment score”, `R5N` is recorded as -0.515.
For `S6C`, “normalised enrichment score” read 0.00534.
`N2V` — result for “normalised enrichment score”: 0.305.
For `G11K`, “normalised enrichment score” read 0.734.
`L7Y` — result for “normalised enrichment score”: 0.417.
For `F9C`, “normalised enrichment score” read -0.0902.
Under “normalised enrichment score”, `S12Y` is recorded as 0.214.

Set 2 — technique: RNA Bind-n-Seq; molecule type: RNA; medium: in vitro; tested at: 365 nM; baseline: no-protein control; direction: higher = stronger binding
Target: RNA binding protein fox-1 homolog 2, RRM domain, GST-SBP tag (RBFOX2, Homo sapiens, UniProt O43251-10, residues 100-194)
Setting: natural RNA segment, single round, ends assumed
Construct (chain): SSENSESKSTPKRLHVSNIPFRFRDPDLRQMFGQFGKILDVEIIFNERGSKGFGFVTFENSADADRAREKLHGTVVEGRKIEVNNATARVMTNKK
`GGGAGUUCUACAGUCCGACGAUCCGGGGCGAGGUACUGGCUGCAGAGUCGCCUUAGUCCAGAACCUGACAGGCCUCUGGAGCCAGGCGACUUCUUGGGAAACUGUCAUCUCCCGACUCCUCCCUGAGCCAGCCUGGAAUUCUCGGGUGCCAA`: “RBNS enrichment (R)” 0.362.
Under “RBNS enrichment (R)”, `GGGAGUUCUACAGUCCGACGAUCAAAAAAGUCGAGAAACUUUGUAAAAUAUUGUGUGUGUGAUUCCUUGUAAAAUAUUUUCAAAUGGUUUAUUACAGAAGAUCAGUUAUUAAAUAAUGUUCAUAUUUUCACUUUGGAAUUCUCGGGUGCCAA` is recorded as 1.29.
`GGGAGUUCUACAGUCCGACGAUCCCCUUUCUUAAUAUGACUAGUGGUCUUGAUGCUAGAGUCAACUUACUCUGUUGCUGGCUUUAGCAGAGAAUAGGAGGAACCAUAUGAAAAAGAUCAGGCUUUCUGACUUCUGGAAUUCUCGGGUGCCAA` — result for “RBNS enrichment (R)”: 0.36.
For `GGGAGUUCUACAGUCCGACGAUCGAAGAUGUUUUGCGUUGCUACGUGAAUCAGUGGAUGACUCAUAUUUCACUUGCAUAUGAAAUAUAAGGCAGUUAACAUCUUGUUUGUGGCUUAAGCAAGGACAUUAAUCCUGGAAUUCUCGGGUGCCAA`, “RBNS enrichment (R)” read 0.645.
`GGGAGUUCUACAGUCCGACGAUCGUAACUAGGUGUAAAAAUCAUGUGUUGCAGCUUUAUAGUUUUUAAAAUAUUUUAGAUAAUUCUUAAACUAUGAACCUUCUUAACAUCACUGUCUUGCCAGAUUACCGACAUGGAAUUCUCGGGUGCCAA` — result for “RBNS enrichment (R)”: 0.418.
For `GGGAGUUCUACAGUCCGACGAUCCAGUGCUGUUUGGAGACUGUGAGAGGGAGUGCGUGUGUUGACACAUGUGGAUCAGGCCCAGGAAGGGCACAGGGGCUGAGCACUACAGAAGUCACAUGGGUUCUCAGGGUUGGAAUUCUCGGGUGCCAA`, “RBNS enrichment (R)” read 0.916.
Under “RBNS enrichment (R)”, `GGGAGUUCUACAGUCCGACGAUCCUGACCUAGCUCAUAGGGCAAAUGGUCCUAAUAGGAUGGGCAAUCCAGAUGCCUGAGCCCCUUCACUCCGACAGCACCAGCGCCUAAUGCAGCCUUUUCAUUCUUGCCAUUGGAAUUCUCGGGUGCCAA` is recorded as 0.364.
For `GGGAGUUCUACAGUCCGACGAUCCAGCGAGAGCAUGUCCAUCUGUUGGACAGCACUAUUCUAGAGAACUAAACUGGCUUAACGAGUCACAGCCUCAGCUGUGCUGGGACGACCCUUGUCUCCCUGGGUAGGGGUGGAAUUCUCGGGUGCCAA`, “RBNS enrichment (R)” read 0.434.

Single results of other studies
With `CCCOc1ccc([C@@H]2[C@@H](C(=O)O)[C@H](c3ccc4c(c3)OCO4)CN2CC(=O)Nc2c(CC)cccc2CC)cc1` the remaining binding was 100% (Calcium/calmodulin-dependent protein kinase type II subunit alpha (CAMK2A, Homo sapiens, UniProt Q9UQM7); cell-free assay, competition with immobilised ligand; 1 µM).
With `CCOC(=O)[C@@H]1CSCC(=O)N[C@H](CC)C(=O)N(C)[C@@H](C)C(=O)N[C@H](CC(C)C)C(=O)N2CCC[C@H]2C(=O)N(CC)CC(=O)N[C@H](CC(C)C)C(=O)N(C)[C@H](C)C(=O)N[C@@H](CC(C)C)C(=O)N1C` the logD was 1.02 (hydrocarbon/water).
For `CN(C)C(=O)Cn1cc(-c2nc([C@@](C)(c3ccc(-c4cnc(N)nc4)cc3)C3CC3)no2)cn1`, the remaining binding was 83% (Serine/threonine-protein kinase 32A (STK32A, Homo sapiens, UniProt Q8WU08); cell-free assay, competition with immobilised ligand; 1 µM).

Excerpt of the above (single results of other studies):
With `CCCOc1ccc([C@@H]2[C@@H](C(=O)O)[C@H](c3ccc4c(c3)OCO4)CN2CC(=O)Nc2c(CC)cccc2CC)cc1` the remaining binding was 100% (Calcium/calmodulin-dependent protein kinase type II subunit alpha (CAMK2A, Homo sapiens, UniProt Q9UQM7); cell-free assay, competition with immobilised ligand; 1 µM).
For `CN(C)C(=O)Cn1cc(-c2nc([C@@](C)(c3ccc(-c4cnc(N)nc4)cc3)C3CC3)no2)cn1`, the remaining binding was 83% (Serine/threonine-protein kinase 32A (STK32A, Homo sapiens, UniProt Q8WU08); cell-free assay, competition with immobilised ligand; 1 µM).
With `CCOC(=O)[C@@H]1CSCC(=O)N[C@H](CC)C(=O)N(C)[C@@H](C)C(=O)N[C@H](CC(C)C)C(=O)N2CCC[C@H]2C(=O)N(CC)CC(=O)N[C@H](CC(C)C)C(=O)N(C)[C@H](C)C(=O)N[C@@H](CC(C)C)C(=O)N1C` the logD was 1.02 (hydrocarbon/water).
